Measurements collected from several papers.
Protocols differ between the studies behind these lines. Numbers after ± are the reported error.

`CSCC[C@@H]1NC(=O)[C@H](CC(=O)O)NC(=O)CNC(=O)[C@H](CCCNC(=N)N)NC(=O)[C@H](C)NC(=O)[C@H](CCC(=O)O)NC(=O)[C@H](CCCNC(=N)N)NC(=O)[C@@H]2CSSC[C@@H]3NC(=O)[C@H](CO)NC(=O)[C@H]([C@@H](C)O)NC(=O)[C@@H]4CCCN4C(=O)[C@H](C)NC(=O)[C@H](Cc4c[nH]c5ccccc45)NC(=O)[C@H](CC(=O)O)NC(=O)CNC(=O)[C@H](CCCNC(=N)N)NC(=O)CNC(=O)[C@H](CCC(N)=O)NC(=O)[C@@H]4CCCN4C(=O)[C@@H](NC(=O)CNC(=O)C(C)F)CSSC[C@H](NC(=O)CNC(=O)[C@H](C)NC(=O)[C@H](CC(C)C)NC(=O)[C@H](CSSC[C@@H](C(=O)NCC(N)=O)NC(=O)[C@H]([C@@H](C)O)NC(=O)[C@H](CCCNC(=N)N)NC(=O)[C@@H]4CCCN4C1=O)NC(=O)[C@H](CC(=O)O)NC(=O)[C@H](CO)NC(=O)[C@H](CC(=O)O)NC(=O)[C@H](CCC(N)=O)NC(=O)[C@H](CO)NC3=O)C(=O)N[C@@H](C(C)C)C(=O)N2` (some centres unmarked) [fluorine-18 labelled] gave a tissue uptake of 0.21 ± 0.02 %ID/g (nude mice, U-87 MG xenograft, heart; intravenous, 2.5 h, added: cyclo(RGDyK) 330 µg coinjected).
With `Oc1ccc2ccc3c4ccccc4cc4ccc1c2c43` the AUC was 20.3 ± 18.4 fg BaP equivalents·h/mL (UPLC-AMS; human, plasma; oral, 100 ng of [14C]-BaP).
`CC[C@H](C)[C@H](NC(=O)[C@H](C)NC(=O)[C@H](CCCCN)NC(=O)[C@H](CC(C)C)NC(=O)[C@H](C)NC(=O)[C@@H](NC(=O)[C@H](Cc1c[nH]cn1)NC(=O)[C@H](CC(C)C)NC(=O)[C@@H](NC(=O)[C@@H](NC(=O)[C@H](CCCCN)NC(=O)[C@H](CCCCN)NC(=O)[C@H](C)NC(=O)[C@H](CO)NC(=O)[C@H](CCCCN)NC(=O)[C@H](Cc1ccccc1)NC(=O)[C@@H](NC(=O)[C@H](CCCCN)NC(=O)[C@H](CC(C)C)NC(=O)[C@H](Cc1ccccc1)NC(=O)[C@H](CO)NC(=O)[C@H](CCCCN)NC(=O)[C@H](Cc1c[nH]c2ccccc12)NC(=O)[C@H](CCCCN)NC(C)=O)[C@@H](C)O)[C@@H](C)O)C(C)C)[C@@H](C)O)C(=O)N[C@@H](CO)C(=O)N[C@@H](CO)C(N)=O` — result for “mean residue ellipticity”: -3300 deg cm² dmol⁻¹ (circular dichroism at 222 nm; KCl phosphate buffer; 75 µM, pH 7.4, 30 °C).
For `CN[C@@](C)(C[18F])C(=O)O`, the tissue uptake was 13 ± 1 %ID/g (SCID mouse DU-145 xenograft, spleen; 15 min, post injection).
For `CC(=O)NCCCC[C@H](NC(=O)OC12CC3CC(CC(C3)C1)C2)C(=O)N[C@@H](CCC(=O)C=[N+]=[N-])C(=O)OC(C)C`, the compound remaining was 28% (metabolic stability; pig, liver; 20 µM, 1 h).
`O=C(NCCS)c1cccc(C(=O)NCCS)c1` has a plasma concentration of 39.4 ng/mL (rat Sprague-Dawley male; intravenous, 1 mg/kg, 6 h).
Under “weight-normalised steady-state clearance”, `CCCCCOc1ccc(-c2cc(-c3ccc(C(=O)N[C@H]4C[C@@H](O)[C@@H](O)NC(=O)[C@@H]5[C@@H](O)[C@@H](C)CN5C(=O)[C@H]([C@H](O)CC(N)=O)NC(=O)[C@H]([C@H](O)[C@@H](O)c5ccc(O)c(OS(=O)(=O)O)c5)NC(=O)[C@@H]5C[C@@H](O)CN5C(=O)[C@H]([C@@H](C)O)NC4=O)cc3)no2)cc1` is recorded as 0.272 mL/min/kg (human paediatric patients 6 to sample C years, plasma; intravenous, 4.5 mg/kg once daily, day 7, geometric mean).
For `COc1cc(-c2nc(-c3ccccc3)c(-c3cccs3)[nH]2)cc(OC)c1OP(=O)(O)O`, the remaining compound was > 50% (C57BL/6 mouse, CES1 knockout, liver homogenate; 10 µM, 1 h, 37 °C).
With `CCCCCCCCCCCCCCCCCC(=O)N[C@H](C(=O)N[C@H](C(=O)N[C@@H](CCCNC(=N)N)C(=O)N[C@@H](CCCNC(=N)N)C(=O)N[C@@H](C)C(=O)N[C@@H](CC(=O)O)C(=O)N[C@@H](CCCNC(=N)N)C(=O)N[C@@H](C)C(=O)N[C@@H](C)C(=O)N[C@H](C(=O)N1CCC[C@H]1C(=O)NCC(=O)NCC(=O)NCC(=O)NCC(=O)N[C@@H](CCCNC(=N)N)C(=O)NCC(=O)N[C@@H](CC(=O)O)C(=O)O)C(C)C)C(C)C)[C@@H](C)CC` the terminal half-life was ~25.8 min (ELISA; Sprague Dawley rat male, blood; intravenous, 2.415 mg/kg).
`[123I]c1cncc(OC[C@@H]2CCN2)c1` has a tissue/plasma ratio of 11.1 (SPECT; human, fusiform gyrus; intravenous bolus, 9.1 mCi; relative to: tissue over plasma).
`O=C(O)c1cc2c(c3c1c([N+](=O)[O-])cc1c(O)cccc13)OCO2` has a urine concentration of 24.1 µM (Wistar rat, male, urine; subcutaneous, 2 mg of aristolochic acid I, 24 h collection).

Excerpt of the above:
For `CC(=O)NCCCC[C@H](NC(=O)OC12CC3CC(CC(C3)C1)C2)C(=O)N[C@@H](CCC(=O)C=[N+]=[N-])C(=O)OC(C)C`, the compound remaining was 28% (metabolic stability; pig, liver; 20 µM, 1 h).
